Measurements collected from several papers.
Several values in a cell are separate wells, animals, samples, runs or records. ± marks the error that the study gave.

SMILES = CN1CCN(S(=O)(=O)c2cc([N+](=O)[O-])ccc2N(CCOS(C)(=O)=O)CCOS(C)(=O)=O)CC1; system = NSG mice, sample DC PDX; setting = intraperitoneal, 25 mg/kg weekly x3; measurement = event-free survival; result = > 54 days
SMILES = C[C@]1(CO)Cc2ncn(-c3ccc(C#N)c(Cl)c3)c2C(=O)O1; system = Chinese subjects; setting = 3 mg single dose; measurement = urinary sodium excretion 0-24 h; result = 134 mmol
SMILES = CCCC[C@H](NC(=O)[C@@H]1CCCN1C(=O)c1coc(C)n1)C(=O)N[C@@H](CC(C)C)C(=O)NC(C)(C)C(=O)N[C@@H](CC(C)C)C(=O)N[C@@H](CC(C)C)C(=O)NC(C)(C)C(=O)NC(C)(C)C(=O)NCCC(=O)NC1(CN(C)C)CCC1; system = small unilamellar vesicles; setting = concentration not given; measurement = calcein leakage; result = 0%
SMILES = Cc1cccc(C)c1NC(=O)C1CCCCN1 (stereo not drawn); test = hot plate; system = Sprague-Dawley rat, male, sciatic nerve; setting = 30 mM; measurement = sensory maximum possible effect; result = 100%
SMILES = O=C(O)CNC(=O)c1cc2ccccc2n1Cc1ccc(C2CC2)c2ccccc12; system = mouse, acute hyperuricaemia model, serum; setting = oral, 2 mg/kg, individual animal data; measurement = serum uric acid; result = 378 µM and 408 µM and 521 µM
SMILES = O=C(O)/C=C/C(=O)O.Oc1cccc2[nH]cc(CCNCc3ccccc3)c12; system = C57BL/6J mice; setting = subcutaneous, 0.3 mg/kg, 30 min; measurement = distance travelled; result = 2700 ± 316 cm
SMILES = CCCCCN1C[C@H](O)[C@@H](O)[C@H](O)[C@@H]1CO; system = Hexb-/- mice, male; setting = 30 mg/kg/day; measurement = median survival; result = 151 days
SMILES = [131I-].[Na+]; test = ATA response criteria; system = human, papillary thyroid cancer, distant metastases; setting = 3700 MBq; measurement = excellent response; result = 28.2%
SMILES = Nc1ncnc2c1ncn2[C@@H]1O[C@@H]2COP(=O)([S-])O[C@@H]3[C@H](O)[C@@H](COP([O-])(=S)O[C@H]2[C@H]1O)O[C@H]3n1cnc2c(N)ncnc21.[Na+].[Na+] (stereo partly drawn); system = BALB/c mouse CT26 tumour; setting = intratumoral, 0.5 mg/kg days 9,12,15; measurement = complete response rate; result = 40%
SMILES = C[C@H](NC(=O)c1c(C(F)F)nn(C)c1Oc1cccc(C(F)(F)F)c1)c1ccc(C(=O)O)cc1; system = human, advanced tumours; setting = 500 mg; measurement = deaths; result = 0%
SMILES = Cc1cn(-c2cc(NC(=O)c3ccc(C)c(Nc4nccc(-c5cccnc5)n4)c3)cc(C(F)(F)F)c2)cn1; system = human patients; setting = dose not given, 12 to 6 months, caregiver distress, within group; scale = direction not given; measurement = change in mean NPI score; result = -0.07
SMILES = CC1(C)C(=CC=C2CCCC(C=CC3=[N+](CCCCS(=O)(=O)[O-])c4ccc(S(=O)(=O)O)cc4C3(C)C)=C2Oc2ccc(S(=O)(=O)O)cc2)N(CCCCCC(=O)NCCCC[C@H](NC(=O)[C@H](CO)NC(=O)CNC(=O)CNC(=O)CNC(=O)[C@H](Cc2ccccc2)NC(=O)[C@H](CCCNC(=N)N)NC(=O)[C@@H]2CCCN2C(=O)[C@H](CC(N)=O)NC(=O)[C@@H]2CCCN2C(=O)[C@H](CO)NC(=O)[C@@H](N)CCCCN)C(N)=O)c2ccc(S(=O)(=O)O)cc21; test = ex vivo photoacoustic imaging; system = CPC;Apc mice, excised colonic adenoma; measurement = tumour to background ratio; result = 2.25
SMILES = Cc1nc(Nc2ccc(CC(=O)O)cc2)nc(Nc2ccc(F)c(C(F)(F)F)c2)c1C; system = C57BL/6J mice, high-fat diet; setting = intraperitoneal, 0.3 mg/kg daily, 60% fat diet 12 weeks, dosed last four; scale = relative to: vehicle; measurement = fed blood glucose; result = decreased
SMILES = C[C@]12CC[C@H](O)C[C@H]1CC[C@@H]1[C@@H]2CC[C@]2(C)[C@@H](c3ccc(=O)oc3)CC[C@]12O; system = female nude mouse LCC2 xenograft; setting = 0.5 mg/kg, day 7, tamoxifen-resistant; measurement = tumour volume; result = 43.7 mm3 and 43.5 mm3 and 25.9 mm3 and 68.4 mm3 and 42.1 mm3 and 59.2 mm3 and 48.6 mm3
SMILES = Cc1c(C(=O)O)ccc2c3n(nc12)[C@@H]1[C@H](C3)N(CC2CC2)[C@@]2(C(=O)Nc3cc(Cl)ccc32)[C@H]1c1cccc(Cl)c1F; system = DKO mouse, sample A orthotopic PDX; setting = 2 mg/kg weekly, 2 doses; measurement = median survival; result = 61 days
SMILES = CC(C)[C@@H](CS(=O)(=O)C(C)C)N1C(=O)[C@@](C)(CC(=O)O)C[C@H](c2cccc(Cl)c2)[C@H]1c1ccc(Cl)cc1; system = mouse, orthotopic PDX; setting = 100 mg/kg, 5 days; measurement = median survival; result = 34 days
SMILES = CCCCC1(CCCC)CN(c2ccccc2)c2cc(SC)c(OCC(=O)N[C@@H](C(=O)NCC(=O)O)c3ccccc3)cc2S(=O)(=O)C1; test = item: HDL cholesterol; system = human, serum; setting = 10 mg once daily, day 7; measurement = serum HDL-C; result = 48.8 mg/dL
SMILES = CC[C@H](C)[C@@H]1NC(=O)[C@@H]2CCCN2C(=O)[C@H](CC(C)C)NC(=O)[C@H](CC(C)C)NC(=O)CNC(=O)[C@@H](NC(=O)[C@@H](NC(=O)[C@H](CC(=O)O)NC(=O)CNC(=O)[C@@H](NC(=O)[C@H](C)NC(=O)CNC(=O)[C@H](CCCCN)NC(=O)[C@H](CC(C)C)NC(=O)[C@H](CC(C)C)NC(=O)[C@H](CCCCN)NC(=O)CNC(=O)[C@@H](NC(=O)[C@@H](N)CC(C)C)C(C)C)C(C)C)C(C)C)CSSC[C@@H](C(=O)O)NC1=O; test = RNA-seq, item: Plac8; system = mouse, traumatic brain injury model, frontal cortex and hippocampus; setting = dose not given; scale = relative to: TBI alone; measurement = log2 fold change; result = -3.83
SMILES = C[C@H]1O[C@@H](O[C@H]2CC[C@@]3(C)[C@@H](CC[C@]4(C)[C@@H]3C=C[C@]35OC[C@@]6(CCC(C)(C)C[C@H]63)[C@@H](O)C[C@]54C)[C@]2(C)CO)[C@H](O)[C@@H](O[C@@H]2O[C@H](CO)[C@@H](O)[C@H](O)[C@H]2O)[C@H]1O; system = Mus musculus, pair-fed, AAV8-TBG-SIRT1 shRNA hepatic SIRT1 knockdown, plasma; setting = oral, high dose, 5 h; measurement = ALT activity; result = 24.4 U/L and 24.9 U/L and 18.4 U/L and 25.1 U/L and 22.4 U/L and 27.7 U/L
SMILES = c1ccc2c(c1)Nc1ccccc1S2; system = CT26 tumour-bearing mice; setting = intraperitoneal, 100 mg/kg equivalents daily, day 1; measurement = tumour volume; result = 182 mm³
SMILES = N.N.[Cl][Pt][Cl]; system = KSN/Slc nude mice, SAS xenograft; setting = dose not given, day 6; measurement = tumour volume; result = 177 mm3 and 253 mm3 and 260 mm3 and 113 mm3 and 190 mm3 and 59.1 mm3 and 402 mm3 and 109 mm3

Repeated from above:
SMILES = Cc1nc(Nc2ccc(CC(=O)O)cc2)nc(Nc2ccc(F)c(C(F)(F)F)c2)c1C; system = C57BL/6J mice, high-fat diet; setting = intraperitoneal, 0.3 mg/kg daily, 60% fat diet 12 weeks, dosed last four; scale = relative to: vehicle; measurement = fed blood glucose; result = decreased
SMILES = c1ccc2c(c1)Nc1ccccc1S2; system = CT26 tumour-bearing mice; setting = intraperitoneal, 100 mg/kg equivalents daily, day 1; measurement = tumour volume; result = 182 mm³
SMILES = CC1(C)C(=CC=C2CCCC(C=CC3=[N+](CCCCS(=O)(=O)[O-])c4ccc(S(=O)(=O)O)cc4C3(C)C)=C2Oc2ccc(S(=O)(=O)O)cc2)N(CCCCCC(=O)NCCCC[C@H](NC(=O)[C@H](CO)NC(=O)CNC(=O)CNC(=O)CNC(=O)[C@H](Cc2ccccc2)NC(=O)[C@H](CCCNC(=N)N)NC(=O)[C@@H]2CCCN2C(=O)[C@H](CC(N)=O)NC(=O)[C@@H]2CCCN2C(=O)[C@H](CO)NC(=O)[C@@H](N)CCCCN)C(N)=O)c2ccc(S(=O)(=O)O)cc21; test = ex vivo photoacoustic imaging; system = CPC;Apc mice, excised colonic adenoma; measurement = tumour to background ratio; result = 2.25
